{"data": "Measured values collected from several papers", "note": "Each line is one published result; not all experiments were run side by side. ± gives the spread as reported."}
{"Structure (SMILES)": "O=C(OCc1cccc(O)c1O)c1ccc(O)c(CO)c1", "cell line": "mouse aortic smooth muscle cells", "test": "lucigenin chemiluminescence", "setting": "dose not given, with: angiotensin II 24 h", "quantity": "superoxide production", "value": "inhibited"}
{"Structure (SMILES)": "CO[C@@H]1[C@@H](O[C@@H]2O[C@H](C)[C@@H](O[C@H]3C[C@@](C)(O)[C@@H](OC(=O)Nc4ccc(C(F)(F)F)cc4)[C@H](C)O3)[C@H](N(C)C)[C@H]2O)[C@@H](CC=O)C[C@@H](C)[C@@H](O[C@H]2CC[C@H](N(C)C)[C@@H](C)O2)/C=C/C=C/C[C@@H](C)OC(=O)C[C@H]1O", "cell line": "GES-1 and HGC-27", "test": "cell growth, CCK-8", "setting": "72 h", "scale": "relative to: IC50 GES-1 over HGC-27", "quantity": "selectivity index", "value": 3.77}
{"Structure (SMILES)": "O=Cc1c(O)ccc2ccccc12", "cell line": "HUVEC", "test": "RNA sequencing, item: RND3", "setting": "75 µM, 24 h", "scale": "relative to: DMSO", "quantity": "log2 fold change", "value": 3.03}
{"Structure (SMILES)": "C=C1C(=O)OC2C1CCC1(C)CC1CCC1(C)OC21 (stereo not drawn)", "cell line": "TEX", "test": "methylcellulose colony", "setting": "2.5 µM, 11 d", "quantity": "colony number", "value": "7 ± 5.1"}
{"Structure (SMILES)": "CCNc1cc2c(cc1C)C1(c3cc(C)c(NCC)cc3O2)c2ccccc2C(=O)N1N=Cc1c[c-]c(-c2ccccn2)cc1.Cc1c(C)c(-c2ccc(-c3ccccc3)cc2)[c-](C)c1C.[Cl-].[Ir+3]", "cell line": "A549", "test": "confocal microscopy, item: lysosome colocalisation", "setting": "1×IC50, 1 h, with: LysoTracker Deep Red 500 nM", "quantity": "Pearson correlation coefficient", "value": 0.64}
{"Structure (SMILES)": "CC(C)c1cccc(C(C)C)c1N1CCN(c2c(C(C)C)cccc2C(C)C)C1=[Se].[Cl][Ag]", "cell line": "LoVo MDR", "test": "MTT", "scale": "relative to: LoVo MDR over LoVo", "quantity": "resistance factor", "value": 0.4}
{"Structure (SMILES)": "CC(=O)OC[C@H]1O[C@@H](Sc2sc(C(=O)c3ccc(C)cc3)c(N)c2-c2nc3ccccc3s2)[C@H](OC(C)=O)[C@@H](OC(C)=O)[C@@H]1OC(C)=O", "cell line": "UACC-62", "test": "SRB", "setting": "10 µM, 48 h", "scale": "relative to: untreated", "quantity": "growth", "value": "55.9%"}
{"Structure (SMILES)": "COc1cc(CNC(=O)C[C@H](C)CCC=C(C)C)ccc1OCc1cn(-c2ccc(C#N)cc2)nn1", "cell line": "MOLT-4 leukaemia cells", "test": "SRB", "setting": "10 µM, 48 h", "quantity": "growth percent", "value": "14.8%"}
{"Structure (SMILES)": "COC(=O)C1=CO[C@@H](C)[C@@H]2Cn3ccc4c5ccccc5nc-4c3C[C@H]12", "cell line": "HEK293", "setting": "200 µM", "quantity": "growth inhibition", "value": "< 50%"}
{"Structure (SMILES)": "C=C(CC)C(=O)c1ccc(OCC(=O)NCCCCNC(=O)COc2ccc(C(=O)C(=C)CC)c(Cl)c2Cl)c(Cl)c1Cl", "cell line": "HEK293", "test": "cell growth, CCK-8", "setting": "72 h", "quantity": "IC10", "value": "~0.2 µM"}
{"Structure (SMILES)": "O=C(c1ccc2ccccc2c1)c1cn(-c2ccccc2)nc1C1=Nn2c(Cc3nnc4n3N=C(c3nn(-c5ccccc5)cc3C(=O)c3ccc5ccccc5c3)CS4)nnc2SC1", "cell line": "MCF7 cells", "test": "RT-PCR, item: p53", "setting": "IC50, 48 h", "scale": "relative to: untreated", "quantity": "mRNA level", "value": "12.3 fold"}
{"Structure (SMILES)": "CC(C)c1cccc(C(C)C)c1-n1c(Cl)c(Cl)n(-c2c(C(C)C)cccc2C(C)C)c1=[Se].[Cl][Au]", "cell line": "LoVo MDR", "test": "MTT", "scale": "relative to: LoVo MDR over LoVo", "quantity": "resistance factor", "value": 1.1}
{"Structure (SMILES)": "COc1cc(C(=O)c2[nH]c(N)nc2-c2cccs2)cc(OC)c1OC", "cell line": "A549 cells", "test": "scratch wound healing", "setting": "200 nM", "quantity": "migration rate", "value": "1.1 ± 0.1 µm/h"}
{"Structure (SMILES)": "COc1cc(CNC(=O)C[C@H](C)CCC=C(C)C)ccc1OCc1cn(-c2ccc([N+](=O)[O-])cc2)nn1", "cell line": "MCF7 breast cancer cells", "test": "SRB", "setting": "10 µM, 48 h", "quantity": "growth percent", "value": "64%"}
{"Structure (SMILES)": "Cc1nn(-c2ccc(S(=O)(=O)N[C@@H](CO)CC(C)C)cc2)c2nn3nnnc3nc12", "cell line": "PC-3", "test": "PI/Hoechst staining", "setting": "2 µM, 24 h", "quantity": "apoptotic cells", "value": "13 ± 1.4%"}
{"Structure (SMILES)": "CC(=O)N[C@H](C(=O)N[C@H](C(=O)N[C@@H](CCCNC(=N)N)C(=O)N1Cc2ccccc2C[C@H]1C(=O)N[C@@H](Cc1ccccc1)C(N)=O)C1CCCCC1)C(C)C", "cell line": "MBP-specific BC-3 T cells", "test": "Bio-Plex multiplex, item: RANTES", "setting": "200 µg/mL, 24 h, with: MBP87-99 antigen", "quantity": "cytokine level", "value": "1120 ± 268 pg/mL"}
{"Structure (SMILES)": "COc1ccc(/C=C/C2=[N+]3C(=C(COC(C)=O)c4c(C)cc(/C=C/c5ccc(OC)cc5)n4[B-]3(F)F)C(C)=C2)cc1", "cell line": "RPE-1", "test": "resazurin", "setting": "with: 645 nm light", "scale": "relative to: dark over light IC50", "quantity": "phototoxicity index", "value": "35 ± 5"}
{"Structure (SMILES)": "CCN(CC)CC(=O)Nc1cccc(-n2cc(-c3ccc4ccc(-c5cn(-c6cccc(NC(=O)CN(CC)CC)c6)nn5)cc4c3)nn2)c1", "cell line": "RCC4", "test": "qRT-PCR, item: HIF-1α", "setting": "10 x IC50", "scale": "relative to: untreated", "quantity": "mRNA level", "value": "27.3%"}
{"Structure (SMILES)": "CC(C)C[C@@H](OC(=O)[C@@H](NC(=O)[C@H](C)OCc1ccccc1)C(C)C)C(=O)N[C@@H](C(=O)O)C(C)C", "cell line": "P388", "test": "cell growth", "test system": "DMSO", "quantity": "ED50", "value": "> 10 µg/mL"}
{"Structure (SMILES)": "CCN1CCN(Cc2ccc(C(=O)Nc3ccc(C)c(NCc4cnc5[nH]ccc5c4OC)c3)cc2C(F)(F)F)CC1", "cell line": "SNU-1040, overexpressing mutant", "test": "cell proliferation", "setting": "48 h", "quantity": "GI50", "value": "3.52 µM"}
{"Structure (SMILES)": "COc1cc(CNC(=O)C[C@H](C)CCC=C(C)C)ccc1OCc1cn(-c2cccc(C(F)(F)F)c2)nn1", "cell line": "IGROV-1 ovarian cancer cells", "test": "SRB", "setting": "10 µM, 48 h", "quantity": "growth percent", "value": "102%"}
{"Structure (SMILES)": "COc1ccc(CC2COC(=O)C2Cc2ccc3c(c2)OCO3)cc1OC (mixture of isomers)", "cell line": "A2780cis", "test": "item: multi-caspase", "setting": "3.25 µM, 72 h", "scale": "relative to: untreated", "quantity": "live cells", "value": "decreased"}
{"Structure (SMILES)": "O=C1CCC(N2C(=O)c3ccc(N4CCC(C(=O)N5CCC(CCN6CCC(CNC(=O)c7cccc(-c8noc(C(F)(F)F)n8)c7)(c7nc(-c8ccccc8)cs7)CC6)CC5)CC4)cc3C2=O)C(=O)N1 (stereo not drawn)", "cell line": "DHL6", "test": "RNA sequencing", "setting": "3 µM, 12 h", "quantity": "downregulated genes", "value": "1390 genes"}
{"Structure (SMILES)": "CC/C=C\\C/C=C\\C/C=C\\C/C=C\\C/C=C\\C/C=C\\CCC(=O)Nc1ccn(C2OC(CO)C(O)C2(F)F)c(=O)n1 (stereo not drawn)", "cell line": "UACC-62", "test": "NCI60 screen", "quantity": "TGI", "value": "12.5 µM"}
{"Structure (SMILES)": "COc1ccc([C@@H]2CC(=O)c3c(O)cc(O[C@@H]4O[C@H](CO[C@@H]5O[C@@H](C)[C@H](O)[C@@H](O)[C@H]5O)[C@@H](O)[C@H](O)[C@H]4O)cc3O2)cc1O", "cell line": "A549", "test": "Matrigel Transwell invasion", "setting": "150 µg/mL, 24 h", "quantity": "invasion", "value": "39 ± 1.5%"}
{"Structure (SMILES)": "CC1(C)C2CC[C@]3(C)[C@H](C(=O)C=C4[C@@H]5C[C@@](C)(C(=O)N6CCN(C(=O)Cc7ccc(Cl)cc7)CC6)CC[C@]5(C)CC[C@]43C)[C@@]2(C)CC[C@@H]1OC(=O)Cc1ccc(Cl)cc1 (stereo partly drawn)", "cell line": "KARPAS-299", "test": "cell growth or viability, MTT", "setting": "20 µg/mL", "quantity": "inhibition", "value": "0%"}
{"Structure (SMILES)": "COc1ccc([C@@H]2CC(=O)c3c(O)cc(O[C@@H]4O[C@H](CO[C@@H]5O[C@@H](C)[C@H](O)[C@@H](O)[C@H]5O)[C@@H](O[C@H]5O[C@H](CO)[C@@H](O)[C@H](O)[C@H]5O)[C@H](O)[C@H]4O)cc3O2)cc1O", "cell line": "A549", "test": "trypan blue exclusion", "setting": "150 µg/mL, 48 h", "quantity": "cell count", "value": "7920 ± 678"}
{"Structure (SMILES)": "Cc1ccc(NC(=O)c2c(C)oc3ccc(O)c(CN4CCCCCC4)c23)cc1", "cell line": "L-363", "test": "annexin V/7-AAD flow cytometry", "setting": "10 µM, 72 h", "quantity": "apoptotic cells", "value": "13%"}
{"Structure (SMILES)": "COc1ccc(CC[C@H]2OC(=O)[C@@H]3CCCCN3C(=O)C(=O)C(C)(C)COC(=O)/C=C/CCN(C)C(=O)[C@H](CC(C)C)N(C)C(=O)[C@@H]3CCCN3C(=O)[C@H](Cc3ccccc3)N(C)C(=O)[C@H](c3ccccc3)NC(=O)CCC(=O)Nc3cccc2c3)cc1OC", "cell line": "HEK293T", "test": "inhibitor, [3H]-thymidine uptake", "setting": "concentration not given", "quantity": "thymidine uptake", "value": "inhibited"}
{"Structure (SMILES)": "O=C(/C=C(O)/C=C/c1cccs1)/C=C/c1cccs1", "cell line": "EA.hy926", "test": "DCFH-DA, normalised to SRB", "setting": "1 µM", "scale": "relative to: untreated", "quantity": "intracellular ROS", "value": "97.3 ± 11.3%"}
{"Structure (SMILES)": "Cc1cc(C)c2sc(NC(=O)C3CCN(S(=O)(=O)c4ccc(F)cc4)CC3)nc2c1", "cell line": "Napepld knockout BMDM", "test": "flow cytometry", "setting": "10 µM, 6 h", "quantity": "efferocytosis", "value": "no effect"}
{"Structure (SMILES)": "CCc1cccc(CC)c1NC(=O)c1nn(C)c2c1CCc1cnc(Nc3ccc(N4CCN(C)CC4)cc3OC)nc1-2", "cell line": "HeLa I598F H2B-YFP", "test": "mitotic checkpoint, live cell imaging", "setting": "with: nocodazole", "quantity": "concentration for full checkpoint override", "value": "200 nM"}
{"Structure (SMILES)": "CCCCCCCCCC[N]1C(=O)c2cccc[n+]2[Ir]1[Cl].Cc1c(C)c(C)[c-](C)c1C", "cell line": "SH-SY5Y", "setting": "concentration not given, with: MPP+", "quantity": "NAD+ level", "value": "36%"}
{"Structure (SMILES)": "FC(F)(F)c1ccnc(-c2cc(C(F)(F)F)ccn2)c1.FC(F)(F)c1ccnc(-c2cc(C(F)(F)F)ccn2)c1.[Cl-].[Cl-].[Ru+2].c1csc(-c2ccc(-c3ccc(-c4ccc(-c5nc6c7cccnc7c7ncccc7c6[nH]5)s4)s3)s2)c1", "cell line": "SK-MEL-28", "setting": "normoxia, largest value, with: visible light", "quantity": "phototherapeutic index", "value": 12000}
{"Structure (SMILES)": "CC(=O)NC1C(O)OC(CO)C(O)C1OC(C)C(=O)NC(C)C(=O)NC(CCC(=O)O)C(N)=O (stereo not drawn)", "cell line": "human PBMCs", "setting": "10 µM, 24 h, with or without LPS", "quantity": "TNF-α secretion", "value": "increased"}
{"Structure (SMILES)": "Cc1ccc2nc(-c3ccccc3)c(CN3CC[C@H](F)C3)n2c1", "cell line": "CRL8155", "test": "cell growth or viability", "setting": "48 h", "quantity": "EC50", "value": "> 50 µM"}
{"Structure (SMILES)": "CO[C@@H]1[C@@H](O[C@@H]2O[C@H](C)[C@@H](O[C@H]3C[C@@](C)(O)[C@@H](O)[C@H](C)O3)[C@H](N(C)C)[C@H]2O)[C@@H](CC=O)C[C@@H](C)[C@@H](O[C@H]2CC[C@H](N(C)C)[C@@H](C)O2)/C=C/C=C/C[C@@H](C)OC(=O)C[C@H]1OC(=O)c1ccc(C(C)(C)C)cc1", "cell line": "GES-1 and HGC-27", "test": "cell growth, CCK-8", "setting": "72 h", "scale": "relative to: IC50 GES-1 over HGC-27", "quantity": "selectivity index", "value": 3.92}
{"Structure (SMILES)": "O=C(Nc1ccc(C(F)(F)F)cc1Cl)c1cc(Cl)ccc1O", "cell line": "PC-3 (AR-negative)", "setting": "concentration not given, 3 days, dose-dependent", "quantity": "cell growth", "value": "decreased"}
{"Structure (SMILES)": "O=C(NCC1(c2nc(-c3ccccc3)cs2)CCOCC1)c1cccc(-c2noc(C(F)(F)F)n2)c1", "cell line": "DHL6", "test": "RNA sequencing", "setting": "3 µM, 12 h", "quantity": "significantly changed genes", "value": "240 genes"}
